Assay results from different studies.
Each numbered part is a random draw from the data of one study; scales do not carry over between parts.

Sample 1
Target: Ras GTPase-activating protein-binding protein 1, C-terminal RGG region (G3BP1, Homo sapiens, UniProt Q13283)
UniProt Q13283, sequence (whole entry, looked up): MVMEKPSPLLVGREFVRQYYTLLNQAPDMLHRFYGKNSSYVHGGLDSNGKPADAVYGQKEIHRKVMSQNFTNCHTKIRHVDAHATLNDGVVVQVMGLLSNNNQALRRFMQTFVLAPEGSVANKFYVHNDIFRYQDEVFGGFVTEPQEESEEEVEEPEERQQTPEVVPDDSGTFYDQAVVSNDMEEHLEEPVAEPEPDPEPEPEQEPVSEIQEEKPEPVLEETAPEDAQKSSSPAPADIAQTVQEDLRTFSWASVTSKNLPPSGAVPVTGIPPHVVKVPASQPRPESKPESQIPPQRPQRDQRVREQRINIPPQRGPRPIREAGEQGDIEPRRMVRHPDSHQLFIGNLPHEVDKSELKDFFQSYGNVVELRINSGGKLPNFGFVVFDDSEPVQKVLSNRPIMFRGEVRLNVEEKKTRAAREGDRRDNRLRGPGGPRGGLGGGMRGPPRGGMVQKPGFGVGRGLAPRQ
Technique: RNA Bind-n-Seq
Form: RNA
Matrix: in vitro
Tested at: 1 µM
Notes: whole 134-nt RNA, ends assumed
Together with: 150 mM KCl
Relative to: input library
Direction: higher = stronger binding
Endpoint: log2 enrichment
Strand = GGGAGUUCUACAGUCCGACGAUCUCAAGUCCUGUGCUACACAUCGUAUGUACCGAAUCGGAAAAAGGAGGAAAAAGGAAAGUAUUAUGUUACGCCGUUCGGAUCUGCACUUCCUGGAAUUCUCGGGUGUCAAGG; result = -1.41
Strand = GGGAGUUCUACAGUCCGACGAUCCUUUGUAAUGGGAACUGCCUCUUUCCUGUUGUUGUUAAUGAAAAUGUCAGAAACCAGUUAUGUGAAUGAUCUCUCUGAAUCCUAAGGGCUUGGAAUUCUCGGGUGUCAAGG; result = -0.604
Strand = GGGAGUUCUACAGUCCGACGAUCUGGGAGGUGGAUUUUGUUUAUCUUUUUAGCUCAUUUCCAGGGGUGGGAAUUUUUUUUUAAUAUGUGUCAUGAAUAAAGUUGUUUUUGAAAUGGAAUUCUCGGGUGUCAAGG; result = 3.24
Strand = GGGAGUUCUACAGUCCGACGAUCAAGUCCUGUGCUACACAUCGUAUGUACCGAAUCAAAUUUUUAAAUUUAAACCCAAAAAAGUAUUAUGUUACGCCGUUCGGAUCUGCACUUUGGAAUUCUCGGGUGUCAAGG; result = -1.19
Strand = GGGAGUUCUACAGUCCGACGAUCUAACUUUAGAGGAGGAUCUGAUGGAUAUGGCAAUGGACGUGGAUUUGGGGAUGGCUAUAAUGGGUAUGGAGGAGGACCUGGAGGUGGCAAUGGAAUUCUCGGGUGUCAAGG; result = -1.34
Strand = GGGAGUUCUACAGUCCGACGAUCUCCUGUGCUACACAUCGUAUGUACCGAAUCGGUUUUUUGGGGUUUUUUGGUUUUUUGGGAAAGUAUUAUGUUACGCCGUUCGGAUCUGCAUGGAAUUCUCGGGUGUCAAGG; result = -0.725
Strand = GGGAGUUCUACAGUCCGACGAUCCUUUGGUUGACAGGAAGUUCCUUUUCCAGGCAGGUCCCGUUGCCACCUCCUGCUCACUCAGUCCCGGGCUCUGCCGAGUGGUCCUGGGAAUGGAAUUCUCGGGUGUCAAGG; result = 0.587
Strand = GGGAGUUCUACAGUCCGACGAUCACCAUGCAGGUGGGCAUCUUUGGGAAGUGGGGCAAGGGGGGGAUAGGGAGGGGGGUAACAAAUUGGGAACAGGUGGUCCCAGGUCGUUUCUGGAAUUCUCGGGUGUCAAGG; result = -1.06
Strand = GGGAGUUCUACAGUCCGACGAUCGCAGGAAGUAAAAACAAAUGGAAAUGCUUCGGAUAGUGGCAGGGGUGAAAGUUGCUAAGGAAAGGGUGGGAUGGGAGUGGGUAAAGAGUUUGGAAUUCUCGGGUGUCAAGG; result = 2.03

Sample 2
Target: RNA binding protein fox-1 homolog 2, RRM domain, GST-SBP tag (RBFOX2, Homo sapiens, UniProt O43251-10, residues 100-194)
Technique: RNA Bind-n-Seq
Form: RNA
Matrix: in vitro
Tested at: 365 nM
Notes: natural RNA segment, single round, ends assumed
Relative to: no-protein control
Direction: higher = stronger binding
Endpoint: RBNS enrichment (R)
Target sequence (chain): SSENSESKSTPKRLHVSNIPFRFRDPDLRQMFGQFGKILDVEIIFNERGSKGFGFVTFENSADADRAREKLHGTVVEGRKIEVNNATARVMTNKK
Strand = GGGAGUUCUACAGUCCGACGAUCACUGACGCUCAGUAACCAUGCAAAAUUGUGUAUAGCAUUAAUGUAUCUACAUACCUACACCUAUCUAUAUAUAAGCUCAUGGUAGAAAACCAUAGCUAAGUAGCAUCGCAUGGAAUUCUCGGGUGCCAA; result = 0.32
Strand = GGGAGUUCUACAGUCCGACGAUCUGUAAUGAUUUGCUUCUGCACCUUGGUCUAGUGCUGGUUUGUGGUGUUUUUGUUUGUAAAUUAGCCUCACUGCCUCCCUGAAAGUGCACAGUCAGCCCAGGUCUCUAGAGUGGAAUUCUCGGGUGCCAA; result = 0.47
Strand = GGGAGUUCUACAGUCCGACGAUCGAAUUCUCUUGCCUUCAACAAGCACACUGACAGAGAAAAAAUGCUACUGUCUGUUGGUUCCAAUAUUCUCCCACUGCUAGAGCUUCCUGUUAAGCAAGUGUGAUCUGCAAUGGAAUUCUCGGGUGCCAA; result = 0.609
Strand = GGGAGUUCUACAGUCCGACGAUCAUGAAGAUACCACGGCUGUUCUGGUCAGCUCCUACCCUUACAUCUCUGUGUGUGUCGUCCCUCAUCCCGUGUAAAUAUCACCAUCCUUGUGACACUGGCACUAAGCAAUGUGGAAUUCUCGGGUGCCAA; result = 0.751
Strand = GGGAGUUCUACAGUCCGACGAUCGUUCCCGCAGCCGCCACCACUAGCCUCCUUAGGGCUGGCCUUGUCCAAAGAAUGGGGGUGGGAGCGCCAAGGGGCAGAGACUCUCCUUGACCCUCUCCCUAAGGUUGGAUUGGAAUUCUCGGGUGCCAA; result = 0.287
Strand = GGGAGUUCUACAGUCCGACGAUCGGCAAGAUAGGAAGCUCUGCCUGAGCUUUCCACUAGGCACGCCAGCCAGACCAAUAAAAAGCGUCUGUCCCACUCUGCUAAGCCUGGUUUUCUUGAGCAGAGGGAUGGAAUGGAAUUCUCGGGUGCCAA; result = 0.326
Strand = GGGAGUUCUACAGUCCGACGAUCUGGACCACCCCUGGUGUGUAGCUAGUAAGAUUACCCUGAGCUGCAGCUGAGCCUGAGCCAAUGGGACAGUUACACUUGACAGACAAAGAUGGUGGAGAUUGGCAUGCCAUUGGAAUUCUCGGGUGCCAA; result = 1.38
Strand = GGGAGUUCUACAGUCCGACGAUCAUUGCUUGAUACCAUGAAAGUGUAAAUACUGUAAUGCCUAAUCUAUUUAUCAAAACUGACUACUGGACCGGAGCCCAGAAACCAUGGGUCAAGUUACACGUGAAUUUGUUUGGAAUUCUCGGGUGCCAA; result = 0.496

Sample 3
Target: Histone acetyltransferase KAT6A, winged helix 1, GST fusion (KAT6A, Homo sapiens, UniProt Q92794, residues 1-85)
Technique: protein binding microarray
Form: double-stranded DNA, one strand shown
Matrix: in vitro
Tested at: not given
Notes: 8-mer, flanks averaged, mean of 2 arrays, mostly near background
Relative to: not given
Direction: higher = stronger binding
Endpoint: E-score
Construct (chain): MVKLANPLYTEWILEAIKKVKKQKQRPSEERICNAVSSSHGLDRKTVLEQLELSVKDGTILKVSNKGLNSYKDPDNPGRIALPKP
Strand = AGATCAGA; result = 0.0135
Strand = GTGGTTTA; result = 0.0741
Strand = AGAGGTCA; result = -0.0458
Strand = GCAAGCTA; result = -0.0727
Strand = AGGCGTTG; result = 0.14
Strand = CGTTGCAG; result = 0.0155
Strand = GAGCAAGA; result = -0.184
Strand = AGCGCTAC; result = 0.336
Strand = CCAGACCA; result = -0.277

Single results of other studies
Substance = PhoQ, residues 284 288 289 292 302 303 GLASVI; target = PhoP, residues 12 14 15 18 19 LYFRQ (Escherichia coli, UniProt P23836); test = Sort-seq, item: YFP reporter; test system = E. coli; setting = PhoQ-PhoP variant library, together with: 10 µM Mg2+; scale = relative to: high Mg2+ state, higher = stronger signaling; endpoint = fold induction; result = 4.66

A few entries again (sample 1):
Strand = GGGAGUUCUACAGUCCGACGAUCUCAAGUCCUGUGCUACACAUCGUAUGUACCGAAUCGGAAAAAGGAGGAAAAAGGAAAGUAUUAUGUUACGCCGUUCGGAUCUGCACUUCCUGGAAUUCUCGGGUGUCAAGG; result = -1.41
Strand = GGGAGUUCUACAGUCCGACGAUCCUUUGUAAUGGGAACUGCCUCUUUCCUGUUGUUGUUAAUGAAAAUGUCAGAAACCAGUUAUGUGAAUGAUCUCUCUGAAUCCUAAGGGCUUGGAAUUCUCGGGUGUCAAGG; result = -0.604
